Experimental data of several laboratories.
Parts stem from different laboratories: compare values within a part only. Several values in a cell are separate wells, animals, samples, runs or records.

Sample 1
SMILES: Cc1ccc(O)c(C)c1-c1cnc2[nH]c(-c3cnc(N4CCC5(CC4)CC(N4CCN(c6ccc(NC7CCC(=O)NC7=O)cc6F)CC4)CO5)nc3)cc2c1C#N (stereo not shown)
Target: Membrane-associated tyrosine- and threonine-specific cdc2-inhibitory kinase (PKMYT1, Homo sapiens, UniProt Q99640)
Target sequence (Q99640 1-499): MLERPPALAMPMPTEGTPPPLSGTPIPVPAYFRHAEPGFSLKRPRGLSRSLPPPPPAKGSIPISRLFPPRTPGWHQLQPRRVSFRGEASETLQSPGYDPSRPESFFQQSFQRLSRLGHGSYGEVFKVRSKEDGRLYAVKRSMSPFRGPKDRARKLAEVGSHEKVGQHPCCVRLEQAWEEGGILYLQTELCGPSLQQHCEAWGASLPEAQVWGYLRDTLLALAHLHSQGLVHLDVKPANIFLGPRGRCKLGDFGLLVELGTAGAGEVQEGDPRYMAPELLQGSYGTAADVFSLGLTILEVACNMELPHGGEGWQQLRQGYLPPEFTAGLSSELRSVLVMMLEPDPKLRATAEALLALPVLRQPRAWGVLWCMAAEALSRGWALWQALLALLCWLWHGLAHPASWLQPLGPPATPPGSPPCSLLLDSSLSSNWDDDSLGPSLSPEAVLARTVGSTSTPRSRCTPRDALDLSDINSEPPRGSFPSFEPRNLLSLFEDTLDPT
test system	setting	degradation [%]
MDA-MB-157	12.35 nM	68.1
MDA-MB-157	0.46 nM	24.8
HCC1599	111.11 nM	75.2

Sample 2 — read-out: thermal unfolding; method: differential scanning fluorimetry; concentration: 5.5 µM; reading: higher = more unfolded
Structure (SMILES): C[C@@H]1CN(c2ccc(-c3cc(C(=O)NCCOCCOCCOCCOCCNC(=O)Cn4cc(-c5[nH]cc(C(=O)N[C@@H](CC(N)=O)c6ccc(F)c(Cl)c6)c5-c5ccc(Cl)cc5F)cn4)ccc3F)cc2NC(=O)c2c[nH]c(=O)cc2C(F)(F)F)C[C@H](C)N1C
DCAF1: DDB1- and CUL4-associated factor 1 (DCAF1, Homo sapiens, UniProt Q9Y4B6)
UniProt Q9Y4B6, sequence (whole entry, looked up): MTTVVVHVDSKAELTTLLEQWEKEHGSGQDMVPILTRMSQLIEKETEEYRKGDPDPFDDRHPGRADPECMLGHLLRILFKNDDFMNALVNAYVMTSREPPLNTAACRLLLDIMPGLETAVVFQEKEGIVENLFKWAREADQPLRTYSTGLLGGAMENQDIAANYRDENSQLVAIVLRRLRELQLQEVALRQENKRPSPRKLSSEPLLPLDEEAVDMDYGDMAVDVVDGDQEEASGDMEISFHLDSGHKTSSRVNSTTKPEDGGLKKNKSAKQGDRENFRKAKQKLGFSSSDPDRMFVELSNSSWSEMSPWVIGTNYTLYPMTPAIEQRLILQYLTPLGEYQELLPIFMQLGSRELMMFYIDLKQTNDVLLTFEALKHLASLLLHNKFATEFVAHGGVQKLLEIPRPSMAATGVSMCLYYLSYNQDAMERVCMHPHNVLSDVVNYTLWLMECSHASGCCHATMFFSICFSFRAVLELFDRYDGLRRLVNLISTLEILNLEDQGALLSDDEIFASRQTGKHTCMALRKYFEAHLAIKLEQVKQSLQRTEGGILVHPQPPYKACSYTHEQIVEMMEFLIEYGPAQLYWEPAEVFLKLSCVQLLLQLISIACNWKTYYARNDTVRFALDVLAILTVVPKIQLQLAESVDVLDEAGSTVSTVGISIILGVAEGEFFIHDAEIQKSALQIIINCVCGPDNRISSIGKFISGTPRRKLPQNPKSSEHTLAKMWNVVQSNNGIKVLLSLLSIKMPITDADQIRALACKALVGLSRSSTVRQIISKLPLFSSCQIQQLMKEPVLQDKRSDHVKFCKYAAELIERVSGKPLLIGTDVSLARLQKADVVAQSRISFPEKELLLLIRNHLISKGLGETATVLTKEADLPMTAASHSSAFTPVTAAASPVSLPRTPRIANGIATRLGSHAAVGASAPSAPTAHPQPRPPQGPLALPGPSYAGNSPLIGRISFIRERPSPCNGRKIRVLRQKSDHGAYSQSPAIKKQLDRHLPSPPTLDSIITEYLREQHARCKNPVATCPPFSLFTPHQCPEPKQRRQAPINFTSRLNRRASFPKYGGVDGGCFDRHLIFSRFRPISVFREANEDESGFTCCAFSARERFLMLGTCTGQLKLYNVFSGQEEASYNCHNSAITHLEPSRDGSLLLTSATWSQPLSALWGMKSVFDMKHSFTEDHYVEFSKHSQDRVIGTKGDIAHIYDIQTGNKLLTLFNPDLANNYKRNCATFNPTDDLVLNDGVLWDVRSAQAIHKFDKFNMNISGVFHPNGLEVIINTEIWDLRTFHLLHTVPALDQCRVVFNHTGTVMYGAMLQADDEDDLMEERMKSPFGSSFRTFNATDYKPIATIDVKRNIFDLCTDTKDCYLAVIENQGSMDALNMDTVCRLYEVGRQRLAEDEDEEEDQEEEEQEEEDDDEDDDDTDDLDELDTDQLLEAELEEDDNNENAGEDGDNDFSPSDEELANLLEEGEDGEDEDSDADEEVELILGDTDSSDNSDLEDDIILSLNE
WDR5: WD repeat-containing protein 5 (WDR5, Homo sapiens, UniProt P61964)
target	setting	SYPRO Orange fluorescence
DCAF1	70.41 °C	54000 a.u.
DCAF1	64.21 °C	54600 a.u.
DCAF1	25.4 °C	7480 a.u.
WDR5	83.01 °C	33500 a.u.
WDR5	37 °C	14300 a.u.

Sample 3 — method: qRT-PCR; species: mouse, PK-59 xenograft; medium: tumour; setting: unit not given
SMILES: Cc1ncsc1-c1ccc(C(CO)NC(=O)C2CC(O)CN2C(=O)C(C(C)C)n2cc(-c3ccc(COc4c(-c5c(C)c(F)cc6[nH]ncc56)c(C5CC5)cc5c(N6CC7CC6CN7)nc(OC6CCOCC6)nc45)cc3)nn2)cc1 (stereo not shown)
test	setting	scale	mRNA level
refers to: MYC	10 mg/kg, 48 h	relative to: vehicle	0.508 and 0.545 and 0.536
refers to: DUSP4	intravenous, 10 mg/kg, 144 h	relative to: vehicle, same time point	0.331 and 0.484 and 0.257
refers to: DUSP4	intravenous, 10 mg/kg, 48 h	relative to: vehicle, same time point	0.132 and 0.0922 and 0.127
refers to: MYC	intravenous, 10 mg/kg, 72 h	relative to: vehicle, same time point	0.0395 and 0.0427 and 0.032
refers to: DUSP6	30 mg/kg, 2 h	relative to: vehicle	0.502 and 0.278 and 0.405
refers to: SPRY4	10 mg/kg, 48 h	relative to: vehicle	0.188 and 0.106 and 0.14
refers to: MYC	intravenous, 10 mg/kg, 48 h	relative to: vehicle, same time point	0.0361 and 0.0336 and 0.0355

Single results of other studies
Compound	cell line	test	setting	scale	quantity	result
COCC1CC2C(CCC3(C)C(O)CCC23)c2ccc(O)cc21 (stereo not shown)	A549	DNA microarray, refers to: TMEM108	concentration not given	relative to: untreated A549 cells	log2 expression ratio	0

For quick reference, copied from above (sample 2):
target	setting	SYPRO Orange fluorescence
DCAF1	70.41 °C	54000 a.u.
